Assay results from different studies.
Each line is one published result; not all experiments were run side by side. Values joined by “and” are separate records of one study, mostly repeats; a detail may differ. ± gives the spread as reported.

SMILES = CCCCCCCC(=O)NCCCC[C@H](NC(=O)CCCCCCC)C(=O)N[C@@H](CCCCNC(=O)CCCCCCC)C(=O)NCC(=O)NCC(=O)NCC(=O)N[C@@H](CS)C(=O)N[C@@H](CCCNC(=N)N)C(=O)N[C@@H](CCCCN)C(=O)N1CCC[C@H]1C(N)=O; target or system = HCE-T; assay = cytotoxicity, MTT; setting = 24 h; measurement = IC50; value = 290 µM
SMILES = Cc1cc(Oc2nc(N3CC[C@@H](c4ccncc4)C3)ncc2F)[nH]n1; target or system = liver cancer cell lines; assay = cell proliferation; setting = average over lines; measurement = IC50; value = 44.7 µM
SMILES = CC(C)C[C@H](NC(=O)[C@H](CC(N)=O)NC(=O)[C@@H](NC(=O)[C@H](C)NC(=O)[C@@H](NC(=O)[C@H](CCC(=O)O)NC(=O)[C@H](CC(C)C)NC(=O)[C@H](CCCCN)NC(=O)[C@H](CCCCN)NC(=O)[C@H](CCC(=O)O)NC(=O)[C@H](Cc1c[nH]c2ccccc12)NC(=O)[C@@H](NC(=O)[C@H](Cc1c[nH]c2ccccc12)NC(=O)[C@H](CO)NC(=O)CNC(=O)CNC(=O)[C@H](CCCNC(=N)N)NC(=O)[C@H](CCCNC(=N)N)NC(=O)[C@H](CCCNC(=N)N)NC(=O)[C@H](CCC(N)=O)NC(=O)[C@H](CCCNC(=N)N)NC(=O)[C@H](CCCNC(=N)N)NC(=O)[C@H](CCCCN)NC(=O)[C@H](CCCCN)NC(=O)[C@@H](N)CCCNC(=N)N)[C@@H](C)O)[C@@H](C)O)C(C)C)C(=O)N[C@@H](C)C(=O)N[C@@H](Cc1c[nH]c2ccccc12)C(=O)N[C@H](C(=O)N[C@@H](C)C(=O)NCC(=O)N[C@@H](CC(N)=O)C(=O)N[C@@H](CO)C(=O)N[C@@H](CC(N)=O)C(=O)N[C@@H](CCCCN)C(=O)N[C@@H](Cc1c[nH]c2ccccc12)C(=O)N[C@H](C(=O)N[C@@H](Cc1c[nH]c2ccccc12)C(=O)N[C@@H](CCCCN)C(=O)O)[C@@H](C)O)[C@@H](C)O; target or system = MEC1; assay = cell growth or viability, flow cytometry; setting = 90 min; measurement = IC50; value = > 10 µM
SMILES = CC(=O)N[C@H](C(=O)N[C@@H](CCCNC(=N)N)C(=O)N[C@@H](CCCCN)C(=O)N[C@@H](CCCNC(=N)N)C(=O)N[C@]1(C)CCCCCCC=CCCC[C@@](C)(C(=O)N[C@@H](CCCNC(=N)N)C(=O)N[C@@H](CCC(=O)O)C(=O)N[C@@H](CC(C)C)C(=O)N[C@H](C(=O)N[C@@H](CCC(=O)O)C(N)=O)C(C)C)NC(=O)[C@H](CCC(N)=O)NC(=O)[C@H](CC(C)C)NC(=O)[C@H](CC(C)C)NC(=O)[C@H](CCCNC(=N)N)NC(=O)[C@H](CCCNC(=N)N)NC(=O)[C@H](CC(C)C)NC1=O)C(C)C; target or system = A-431 (wild-type EGFR); assay = cell viability; setting = 18 h; measurement = IC50; value = 2.88 ± 0.41 µM
SMILES = CC[C@H](C)[C@@H]([C@@H](CC(=O)N1CCC[C@H]1[C@H](OC)[C@@H](C)C(=O)N[C@H](C)[C@@H](O)c1ccccc1)OC)N(C)C(=O)[C@@H](NC(=O)[C@H](C(C)C)N(C)C(=O)OCc1ccc(NC(=O)[C@H](CCCNC(N)=O)NC(=O)[C@@H](NC(=O)CCCc2cn(CC(=O)N[C@@H](CCCCNC(=O)CC[C@H](NC(=O)c3ccc(NCc4cnc5nc(N)[nH]c(=O)c5n4)cc3)C(=O)O)C(=O)NCCCC[C@H]3NC(=O)[C@H](CCCCN)NC(=O)[C@H](CCCNC(N)=O)NC(=O)[C@H](Cc4ccc(O)cc4)NC(=O)[C@@H](NC(=O)[C@H](Cc4ccc5ccccc5c4)NC(=O)[C@H](CCCNC(=N)N)NC(=O)[C@@H](N)CCCNC(=N)N)CSSC[C@@H](C(=O)N[C@@H](CCCNC(=N)N)C(N)=O)NC(=O)[C@H](CCCNC(N)=O)NC(=O)[C@H](CCCNC(=N)N)NC(=O)[C@H](Cc4ccc(O)cc4)NC(=O)[C@@H]4CCCN4C3=O)nn2)C(C)C)cc1)C(C)C; target or system = Daudi; assay = cell growth or viability, CCK-8; measurement = IC50; value = 0.512 µM
SMILES = CC(=O)N[C@H](C(=O)N[C@@H](CCCNC(=N)N)C(=O)N[C@@H](CCCCN)C(=O)N[C@@H](CCCNC(=N)N)C(=O)N[C@]1(C)CCCCCCC=CCCC[C@@](C)(C(=O)N[C@@H](CCCNC(=N)N)C(=O)N[C@@H](CCC(=O)O)C(=O)N[C@@H](CC(C)C)C(=O)N[C@H](C(=O)N[C@@H](CCC(=O)O)C(N)=O)C(C)C)NC(=O)[C@H](CCC(N)=O)NC(=O)[C@H](CC(C)C)NC(=O)[C@H](CC(C)C)NC(=O)[C@H](CCCNC(=N)N)NC(=O)[C@H](CCCNC(=N)N)NC(=O)[C@H](CC(C)C)NC1=O)C(C)C; target or system = A-431; assay = cell viability; setting = 18 h, serum-free; measurement = IC50; value = 2.99 µM
SMILES = CC[C@H](C)[C@H](NC(=O)[C@H](C)NC(=O)[C@@H](N)Cc1c[nH]cn1)C(=O)N[C@@H](Cc1ccc(O)cc1)C(=O)N1CCC[C@H]1C(=O)N[C@@H](CCCNC(=N)N)C(=O)N[C@@H](Cc1c[nH]cn1)C(=O)N[C@@H](CO)C(=O)N[C@@H](Cc1c[nH]c2ccccc12)C(=O)N[C@H](C(=O)N[C@@H](Cc1c[nH]c2ccccc12)C(=O)N[C@@H](CCC(=O)O)C(=O)N[C@@H](CCCCN)C(=O)N[C@@H](CCCCN)C(=O)N[C@@H](CC(C)C)C(=O)N[C@@H](CCC(=O)O)C(=O)N[C@H](C(=O)N[C@@H](C)C(=O)N[C@H](C(=O)N[C@@H](CC(N)=O)C(=O)N[C@@H](CC(C)C)C(=O)N[C@@H](C)C(=O)N[C@@H](Cc1c[nH]c2ccccc12)C(=O)N[C@H](C(=O)N[C@@H](C)C(=O)NCC(=O)N[C@@H](CC(N)=O)C(=O)N[C@@H](CO)C(=O)N[C@@H](CC(N)=O)C(=O)N[C@@H](CCCCN)C(=O)N[C@@H](Cc1c[nH]c2ccccc12)C(=O)N[C@H](C(=O)N[C@@H](Cc1c[nH]c2ccccc12)C(=O)N[C@@H](CCCCN)C(N)=O)[C@@H](C)O)[C@@H](C)O)C(C)C)[C@@H](C)O)[C@@H](C)O; target or system = MEC1; assay = cell growth or viability, flow cytometry; setting = 90 min; measurement = IC50; value = > 6.8 µM
SMILES = CC(C)C12OC1C1OC13C1(C)CCC4=C(COC4=O)C1CC1OC13C2OC(=O)CCCOC1OC(CO)C(O)C(O)C1O (centres unmarked); target or system = RPMI-7951; assay = cell growth or viability, XTT; setting = 47 h; measurement = IC50; value = 5.95 µM
SMILES = CC(=O)N[C@H](C(=O)N[C@@H](CCCNC(=N)N)C(=O)N[C@@H](CCCCN)C(=O)N[C@@H](CCCNC(=N)N)C(=O)NC(C)(C)C(=O)N[C@@H](CC(C)C)C(=O)N[C@@H](CCCNC(=N)N)C(=O)N[C@@H](CCCNC(=N)N)C(=O)N[C@@H](CC(C)C)C(=O)N[C@@H](CC(C)C)C(=O)N[C@@H](CCC(N)=O)C(=O)NC(C)(C)C(=O)N[C@@H](CCCNC(=N)N)C(=O)N[C@@H](CCC(=O)O)C(=O)N[C@@H](CC(C)C)C(=O)N[C@H](C(=O)N[C@@H](CCC(=O)O)C(N)=O)C(C)C)C(C)C; target or system = A-431 (wild-type EGFR); assay = cell viability; setting = 18 h; measurement = IC50; value = > 100 µM
SMILES = CC(=O)N[C@H](C(=O)N[C@@H](CCCNC(=N)N)C(=O)N[C@@H](CCCCN)C(=O)N[C@@H](CCCNC(=N)N)C(=O)N[C@H](C(=O)N[C@@H](CC(C)C)C(=O)N[C@@H](CCCNC(=N)N)C(=O)N[C@]1(C)CCCC=CCCC[C@@](C)(C(=O)N[C@@H](CCC(=O)O)C(=O)N[C@@H](CCCNC(=N)N)C(=O)N[C@@H](CCC(=O)O)C(=O)N[C@@H](CC(C)C)C(=O)N[C@H](C(=O)N[C@@H](CCC(=O)O)C(N)=O)C(C)C)NC(=O)[C@H](CC(C)C)NC(=O)[C@H](CC(C)C)NC1=O)[C@@H](C)O)C(C)C; target or system = A-431; assay = cell viability; setting = 18 h, serum-free; measurement = IC50; value = > 100 µM
SMILES = O=C1C=CC(=O)c2ccccc21; target or system = MOLT-3; assay = cell growth or viability, XTT; measurement = IC50; value = 5.12 µM
SMILES = CCCCCCCC(=O)NCCCC[C@H](NC(=O)CCCCCCC)C(=O)N[C@@H](CCCCNC(=O)CCCCCCC)C(=O)NCC(=O)NCC(=O)NCC(=O)N[C@@H](CS)C(=O)N[C@@H](CCCNC(=N)N)C(=O)N[C@@H](CCCCN)C(=O)N1CCC[C@H]1C(=O)N[C@@H](CS)C(=O)N[C@@H](CCCNC(=N)N)C(=O)N[C@@H](CCCCN)C(=O)N1CCC[C@H]1C(N)=O; target or system = HCE-T; assay = cytotoxicity, MTT; setting = 24 h; measurement = IC50; value = 118 µM
SMILES = Cc1ccc(C(C)C)cc1.Cc1ccc(C(C)C)cc1.Cc1ccc(C(C)C)cc1.Cc1ccc(C(C)C)cc1.O=S(=O)(O)C(F)(F)F.O=S(=O)(O)C(F)(F)F.O=S(=O)(O)C(F)(F)F.O=S(=O)(O)C(F)(F)F.c1ccc2c3c4ccccc4c(c2c1)-c1cn(nn1)-c1cc[n+](cc1)[Ru-]1[O]c2ccc4c5c(ccc(c25)=[O+]1)=[O+][Ru-]([O]4)[n+]1ccc(cc1)-n1cc(nn1)-c1c2ccccc2c(c2ccccc12)-c1cn(nn1)-c1cc[n+](cc1)[Ru-]1[O]c2ccc4c5c(ccc(c25)=[O+]1)=[O+][Ru-]([O]4)[n+]1ccc(cc1)-n1cc-3nn1; target or system = HEK293; assay = cell growth or viability, MTT; setting = 24 h; measurement = IC50; value = 35.7 µM
SMILES = O[C@]12C=C(c3nccc4c3[nH]c3ccccc34)[C@@H]3CCN(CCCC/C=C\CC1)C[C@@]31C[C@@H]3/C=C\CCCCN3[C@H]12; target or system = SK-MEL; assay = cell growth or viability, neutral red; setting = 48 h; measurement = IC50; value = 1 µg/mL
SMILES = CC(C)(C)C(=O)OCOP(=O)(OCOC(=O)C(C)(C)C)C1CCCN(O)C1=O (centres unmarked); target or system = SR; measurement = log LC50; value = > -4 log M
SMILES = C[C@H]1[C@H](OC(=O)CCC(=O)OCCC2CCN(CC(=O)Nc3ccc([N+](=O)[O-])c(C(F)(F)F)c3)CC2)O[C@@H]2O[C@@]3(C)CC[C@H]4[C@H](C)CC[C@@H]1[C@@]24OO3; target or system = A2780; assay = cell growth or viability, CCK-8; measurement = IC50; value = 0.88 µM
SMILES = CCC1=C(C)C2=C(c3ccc(C(=O)NCCNC(=O)c4ccc(P(=NC(=O)c5ccccn5)(c5ccccc5)c5ccccc5)cc4)cc3)c3c(C)c(CC)c(C)n3[B-](F)(F)[N+]2=C1C; target or system = IMR-90; assay = cell viability, MTT; setting = 72 h, 0.1% DMSO; measurement = IC50; value = not toxic
SMILES = O=C1NC2(CC2)COc2ncc(F)cc2[C@H]2COCCN2c2ccn3ncc1c3n2; system = Sprague-Dawley rat, male, serum; setting = oral, 10 mg/kg/day, end of recovery, 4-week subacute toxicity; measurement = serum total protein; value = 57.6 ± 1.7 g/L
SMILES = Cc1cc(Nc2nc(C[C@@]3(C(=O)O)CCN(Cc4cccc(Cl)c4F)[C@H](C)C3)cc(C)c2F)[nH]n1; target or system = DU-4475; assay = cell growth or viability, ATP luminescence; setting = 5 days; measurement = IC50; value = 0.0964 µM
SMILES = O=c1n(CCNCCOS(=O)(=O)c2ccccc2)c(=O)n(S(=O)(=O)c2ccccc2)c(=O)n1S(=O)(=O)c1ccccc1; target or system = A549; assay = cell growth or viability, MTT; setting = 72 h; measurement = IC50; value = 12.7 µg/mL
SMILES = COc1ccccc1-c1n[nH]c2nc(NC3CCN(C(=O)Cc4ccc(F)cc4F)CC3)ncc12; assay = bead binding, competition bead pull-down, item: LINJ.29.2310; system = Leishmania donovani extract; setting = 10 µM; how to read = baseline: vehicle; measurement = relative abundance; value = 0.96
SMILES = C#CCCCC[C@H](C)C[C@@H](C)C(=O)N(C)[C@@H](C)C(=O)N1CCC[C@H]1C(=O)N(C)[C@H](C(=O)N(C)[C@H](C(=O)OC)C(C)C)C(C)C; target or system = HEK293; assay = cell growth or viability, SRB; measurement = IC50; value = 69.5 µM and 127 µM and 95.6 µM
SMILES = CC(C)C12OC1C1OC13C1(C)CCC4=C(COC4=O)C1CC1OC13C2OC(=O)CCC(=O)OC1OC(CO)C(O)C(O)C1O (centres unmarked); target or system = SNU-475; assay = cell growth or viability, XTT; setting = 47 h; measurement = IC50; value = 3.85 µM

A few entries again:
SMILES = CC(C)(C)C(=O)OCOP(=O)(OCOC(=O)C(C)(C)C)C1CCCN(O)C1=O (centres unmarked); target or system = SR; measurement = log LC50; value = > -4 log M
SMILES = O[C@]12C=C(c3nccc4c3[nH]c3ccccc34)[C@@H]3CCN(CCCC/C=C\CC1)C[C@@]31C[C@@H]3/C=C\CCCCN3[C@H]12; target or system = SK-MEL; assay = cell growth or viability, neutral red; setting = 48 h; measurement = IC50; value = 1 µg/mL
SMILES = CCCCCCCC(=O)NCCCC[C@H](NC(=O)CCCCCCC)C(=O)N[C@@H](CCCCNC(=O)CCCCCCC)C(=O)NCC(=O)NCC(=O)NCC(=O)N[C@@H](CS)C(=O)N[C@@H](CCCNC(=N)N)C(=O)N[C@@H](CCCCN)C(=O)N1CCC[C@H]1C(=O)N[C@@H](CS)C(=O)N[C@@H](CCCNC(=N)N)C(=O)N[C@@H](CCCCN)C(=O)N1CCC[C@H]1C(N)=O; target or system = HCE-T; assay = cytotoxicity, MTT; setting = 24 h; measurement = IC50; value = 118 µM
